Assay results gathered from unrelated publications.
Protocols differ between the studies behind these lines. ± gives the spread as reported.

C=C(CC)C(=O)c1ccc(OCC(=O)NCCNC(=O)COc2ccc(C(=O)C(=C)CC)c(Cl)c2Cl)c(Cl)c1Cl  IC10 (SGC-7901/DDP; cell growth, CCK-8; 72 h): ~1.2 µM
CC(C)[C@H](NC(=O)[C@@H]1CCCN1C(=O)[C@H](CCCNC(=N)N)NC(=O)[C@H](CS)NC(=O)[C@H](Cc1c[nH]c2ccccc12)NC(=O)[C@H](CCCNC(=N)N)NC(=O)[C@@H](Cc1ccccc1)NC(=O)[C@H](Cc1c[nH]cn1)NC(=O)[C@H](CCC(=O)O)NC(=O)[C@H](CS)NC(=O)[C@H](CS)NC(=O)CCCCCNC(=O)[C@@H]1CC(=O)N[C@@H](CCCNC(=N)N)C(=O)NCC(=O)N[C@@H](CC(=O)O)C(=O)N[C@H](Cc2ccc(O)cc2)C(=O)N1)C(N)=O  survival decrease (B16/F1; 0.1 µM, 3 h, 37 °C, read 5 days later; relative to: untreated): 67%
C[n+]1c(/C=C/c2ccc(N(c3ccccc3)c3ccccc3)cc2)cc(/C=C2\Sc3ccccc3N2CCCN2CCCC2)c2ccccc21  IC50 ratio (CA46; 36 h; relative to: CA46 over Raji): ~3 fold
COC(=O)[C@@H]1[C@@H](OC)[C@H](OC(=O)c2cc(OC)c(OC)c(OC)c2)C[C@@H]2CN3CC[C@]4(O[C@@H]3C(=O)[C@@H]21)C(=O)Nc1cc(OC)ccc14  late apoptotic cells (RS4;11; annexin V/PI flow cytometry; 10 µM, 72 h): 82.7 ± 2.81%
CCCC[C@@H]1NC(=O)[C@@H](NC(=O)[C@H](CCC(=O)O)NC(=O)[C@H](CCC(=O)O)NC(C)=O)CCCCNC(=O)[C@@H](NC(=O)CN2CCN(CC(=O)O)CCN(CC(=O)O)CCN(CC(=O)O)CC2)CCCCNC(=O)[C@H](C(C)C)NC(=O)[C@@H]2CCCN2C(=O)[C@H](CCCNC(=N)N)NC(=O)CNC(=O)[C@H](Cc2c[nH]c3ccccc23)NC(=O)[C@H](CCCNC(=N)N)NC(=O)[C@@H](Cc2ccccc2)NC(=O)[C@H](Cc2c[nH]cn2)NC(=O)[C@H](CCC(=O)O)NC1=O [indium-111 labelled]  cellular uptake (B16/F1; 2 h, 25 °C): 81.12 ± 0.28%
COc1cc(CNC(=O)C[C@H](C)CCC=C(C)C)ccc1OCc1cn(-c2ccccc2[N+](=O)[O-])nn1  growth percent (K562 leukaemia cells; SRB; 10 µM, 48 h): 51.5%
C=C(C)[C@@H]1CC[C@]2(C(=O)OCO/N=[N+](\[O-])N3CCCC3)CC[C@]3(C)[C@H](CC[C@@H]4[C@@]5(C)CC[C@H](OC(C)=O)C(C)(C)[C@@H]5CC[C@]43C)[C@@H]12  early apoptotic cells (B16-F10; Annexin V/PI flow cytometry; 0.50 µM, 36 h): 6.39%
CCC(=C(c1ccc(Cl)cc1)c1ccc(OCCCN(C)C)cc1)c1ccc(OC)cc1  GI50 (MDA-MB-435; cell growth or viability, SRB): 3.28 µM
COc1ccc(C2=Nn3c(NN=C4C(=O)N(Cc5ccccc5)c5ccc(Cl)cc54)nnc3SC2)cc1  inhibition (MDA-MB-435; cell growth or viability, SRB; 10 µM): 14%
C[C@H](CC(=O)C[C@@H](C)[C@H]1C[C@H](O)[C@@]2(C)C3=C(C(=O)C[C@]12C)[C@@]1(C)CCC(=O)C(C)(C)[C@@H]1C[C@@H]3O)C(=O)O  glucose consumption (3T3-L1 adipocytes; concentration not given): increased
CC(=O)OC[C@H]1O[C@@H](Sc2sc(C(=O)c3ccc(C)cc3)c(N)c2-c2nc3ccccc3s2)[C@H](OC(C)=O)[C@@H](OC(C)=O)[C@@H]1OC(C)=O  growth (MDA-MB-435; SRB; 10 µM, 48 h; relative to: untreated): 77.4%
COc1cc2c(C=C3C(=O)Nc4ccccc43)c[nH]c2cc1C  TGI (renal cancer subpanel of NCI-60; 48 h): 6.92 µM
CO[C@H]1N(OC)c2ccccc2[C@@]12CN=C(Nc1cc(C(F)(F)F)cc(C(F)(F)F)c1)S2 (relative stereo)  G0/G1 phase cells (HCT-116; PI flow cytometry; 40 µM, 48 h): 35.6 ± 3.22%
O=C(O)CCC(NP(=O)(O)OCCC[C@@H](NC(=O)CC[C@H](NC(=O)CCCCCNC(=O)c1ccc([18F])cc1)C(=O)O)C(=O)O)C(=O)O (some centres unmarked)  uptake ratio (LNCaP, CWR22Rv1; concentration not given, 4 h; relative to: LNCaP over CWR22Rv1): 6.6 fold
CC(=O)OC[C@H]1O[C@@H](Sc2sc(C(=O)c3ccc(Br)cc3)c(N)c2-c2nc3ccccc3s2)[C@H](OC(C)=O)[C@@H](OC(C)=O)[C@H]1OC(C)=O  growth (MDA-MB-435; SRB; 10 µM, 48 h; relative to: untreated): 91.7%
COc1ccc2c(c1)/C(=N\Nc1nnc3n1N=C(c1ccccc1)CS3)C(=O)N2  inhibition (SF-295; cell growth or viability, SRB; 10 µM): 12%
Cc1ccc(C(C)C)cc1.[Cl-].[Cl][Ru+].[Ru+].c1ccc(-c2cn(CCCCOc3ccccc3-c3nc4ccccc4s3)nn2)nc1  cells in phase (MCF7; PI flow cytometry, item: S phase; 8 µM, 24 h): 22.6%
COc1cc(CNC(=O)C[C@H](C)CCC=C(C)C)ccc1OCc1cn(-c2cccc([N+](=O)[O-])c2)nn1  growth percent (K562 leukaemia cells; SRB; 10 µM, 48 h): 83.1%
O=C(N1CCCC1)n1cc(-c2ccc(-c3ccccc3)cc2)nn1  SILAC ratio (mouse T-cells; N-terminal labeled proteins, N-terminal enrichment proteomics, item: SKP1A; 1 nM, 6 h; relative to: DMSO): 1.18 ± 0.26
NCCCCCO[C@H]1O[C@H](COS(=O)(=O)O)[C@@H](O[C@@H]2O[C@@H](C(=O)O)[C@@H](O[C@H]3O[C@H](COS(=O)(=O)O)[C@@H](O[C@@H]4O[C@@H](C(=O)O)[C@@H](O[C@H]5O[C@H](COS(=O)(=O)O)[C@@H](O[C@@H]6O[C@@H](C(=O)O)[C@@H](O)[C@H](O)[C@H]6OS(=O)(=O)O)[C@H](O)[C@H]5NS(=O)(=O)O)[C@H](O)[C@H]4OS(=O)(=O)O)[C@H](O)[C@H]3NS(=O)(=O)O)[C@H](O)[C@H]2OS(=O)(=O)O)[C@H](O)[C@H]1NS(=O)(=O)O  wound closure (human corneal epithelial cells; cell migration, scratch; concentration not given, 24 h): ~75%
COc1cc2c(OC3OCC(OC)C(OC)C3OC(=O)c3ccc(Br)cc3)c3c(c(-c4ccc5c(c4)OCO5)c2cc1OC)C(=O)OC3 (centres unmarked)  mRNA level (FaDu; RT-qPCR, item: CTSD; concentration not given, 72 h): decreased
O=Cc1c(O)ccc2ccccc12  log2 fold change (HUVEC; RNA sequencing, item: CSGALNACT1; 75 µM, 24 h; relative to: DMSO): -3.2
COc1ccc([C@@H]2CC(=O)c3c(O)cc(O[C@@H]4O[C@H](CO[C@@H]5O[C@@H](C)[C@H](O)[C@@H](O)[C@H]5O)[C@@H](O)[C@H](O)[C@H]4O)cc3O2)cc1O  cell count (MRC5; trypan blue exclusion; 50 µg/mL, 48 h): 14600 ± 472
CC(=O)N[C@H](C(=O)N[C@H](C(=O)N[C@@H](CCCNC(=N)N)C(=O)N1Cc2ccccc2C[C@H]1C(=O)N[C@@H](Cc1ccccc1)C(N)=O)C1CCCCC1)C(C)C  cytokine level (MBP-specific BC-3 T cells; Bio-Plex multiplex, item: TNF-a; 200 µg/mL, 24 h, with: MBP87-99 antigen): 45.7 ± 34.9 pg/mL
C=C1C(=O)OC2C=C(C)CCC=C(C(=O)OC(C)C(C)(O)C(=O)OC3C(OC(C)=O)C(C(=O)OC)=CCCC(C)=CC4OC(=O)C(=C)C43)CC(OC(=O)C(C)=CC)C12 (centres unmarked)  caspase-3/7 activity (HeLa; 3 µM, 24 h; relative to: untreated): 4.27 fold
O=C(CSc1nc2ccccc2s1)Nc1nonc1[N+](=O)[O-]  luciferase signal (HEK293T transfected with f-Nluc; NanoLuc reporter, NanoGlo counter-screen; concentration not given): no inhibition
Cc1cc([C@H](C(=O)N2C[C@H](O)C[C@H]2C(=O)N[C@@H](CC(=O)N2CCC(N3CCC(C#Cc4ccc(C(=O)N[C@H]5C(C)(C)[C@H](Oc6ccc(C#N)c(Cl)c6)C5(C)C)cc4)CC3)CC2)c2ccc(-c3scnc3C)cc2)C(C)C)on1  WNT7B and MYC expression (MDA-MB-453; mRNA and protein; concentration not given, 24 h, with: 1 nM R1881): inhibited
COc1c(CC=C(C)C)c(O)cc2c1-c1oc3c(CC=C(C)C)c(O)ccc3c1CO2  glucose consumption (3T3-L1 adipocytes; activator; up to 100 µM): inactive
COc1cc(CNC(=O)C[C@H](C)CCC=C(C)C)ccc1OCc1cn(-c2ccc(Br)cc2)nn1  growth percent (UACC-62 melanoma cells; SRB; 10 µM, 48 h): 65.2%
COc1ccc(S(=O)(=O)N(CC(=O)O)c2c(C)c(C)c(N(CC(=O)O)S(=O)(=O)c3cccnc3)c(C)c2C)cc1  IL-1β secretion (H9c2; ELISA; 10 µM, with: LPS 1 µg/mL): decreased
COc1ccc([C@@H]2CC(=O)c3c(O)cc(O[C@@H]4O[C@H](CO[C@@H]5O[C@@H](C)[C@H](O)[C@@H](O)[C@H]5O)[C@@H](O[C@H]5O[C@H](CO)[C@@H](O)[C@H](O)[C@H]5O)[C@H](O)[C@H]4O)cc3O2)cc1O  invasion (A549; Matrigel Transwell invasion; 150 µg/mL, 48 h): 24.4%
COc1cc(CNC(=O)C[C@H](C)CCC=C(C)C)ccc1OCc1cn(-c2ccc(Cl)cc2Cl)nn1  growth percent (NCI-H460; SRB; 10 µM, 48 h): 75.1%
Cc1ccc(=O)n(-c2ccc(NC(=O)[C@H](C)N(C)C)cc2)c1  inhibition (NIH3T3; cell growth or viability, CCK-8; 500 µM): 58.6%
Cc1cc(/C=C2\CN(C(C)C)C/C(=C\c3cc(C)c(O)c(C)c3)C2=O)cc(C)c1O  G2/M phase cells (HeLa; PI flow cytometry; 10 µM, 24 h): 25.3 ± 2.07%
COc1cc(CNC(=O)C[C@H](C)CCC=C(C)C)ccc1OCc1cn(-c2ccc(F)cc2)nn1  growth percent (NCI-H460; SRB; 10 µM, 48 h): 79.5%

Some of these lines once more:
CO[C@H]1N(OC)c2ccccc2[C@@]12CN=C(Nc1cc(C(F)(F)F)cc(C(F)(F)F)c1)S2 (relative stereo)  G0/G1 phase cells (HCT-116; PI flow cytometry; 40 µM, 48 h): 35.6 ± 3.22%
COc1cc(CNC(=O)C[C@H](C)CCC=C(C)C)ccc1OCc1cn(-c2ccc(Br)cc2)nn1  growth percent (UACC-62 melanoma cells; SRB; 10 µM, 48 h): 65.2%
C=C(CC)C(=O)c1ccc(OCC(=O)NCCNC(=O)COc2ccc(C(=O)C(=C)CC)c(Cl)c2Cl)c(Cl)c1Cl  IC10 (SGC-7901/DDP; cell growth, CCK-8; 72 h): ~1.2 µM
C=C1C(=O)OC2C=C(C)CCC=C(C(=O)OC(C)C(C)(O)C(=O)OC3C(OC(C)=O)C(C(=O)OC)=CCCC(C)=CC4OC(=O)C(=C)C43)CC(OC(=O)C(C)=CC)C12 (centres unmarked)  caspase-3/7 activity (HeLa; 3 µM, 24 h; relative to: untreated): 4.27 fold
